Published values collected from several papers.
Every numbered part comes from another study and shows a few of its results, in no order.

Set 1 — method: RNAcompete; molecule type: RNA; matrix: in vitro; concentration: 20 nM; setting: 7-mer, probes averaged, single round; relative to: mean of 7-mers; reading: higher = stronger binding; measurement: 7-mer Z-score
Target: PABPC1L2, full length, GST fusion (mouse, UniProt A0ABA7IW68)
Construct (chain): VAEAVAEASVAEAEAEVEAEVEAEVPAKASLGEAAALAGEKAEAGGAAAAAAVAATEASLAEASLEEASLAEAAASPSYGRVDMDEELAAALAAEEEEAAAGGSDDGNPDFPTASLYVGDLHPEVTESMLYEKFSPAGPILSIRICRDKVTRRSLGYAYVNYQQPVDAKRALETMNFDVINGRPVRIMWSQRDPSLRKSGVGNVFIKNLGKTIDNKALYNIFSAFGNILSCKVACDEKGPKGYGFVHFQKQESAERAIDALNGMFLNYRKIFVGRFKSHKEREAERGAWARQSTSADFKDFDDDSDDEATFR
CCGUAUU: -0.329
AGCAGUA: -0.0228
AUAUCCU: -0.258
GCCAGGA: 0.017
CCGUUUA: -0.325
GGCAAAA: 4.7
UCCCGGC: -0.374
CCUCAUU: -0.253
AGUGCCC: -0.162
UCCGCCC: -0.481
AAUUCAG: 0.305
GAAUCUC: -0.318
AUCAGAC: 0.138
UUGUCAU: -0.382
CUUAGAA: 0.129
CGCCAGC: -0.336
CCCUCCA: -0.311
CCGUAAU: -0.22

Set 2 — method: RNA Bind-n-Seq; molecule type: RNA; matrix: in vitro; concentration: 1 µM; setting: whole 134-nt RNA, ends assumed; with: 150 mM KCl; relative to: input library; reading: higher = stronger binding; measurement: log2 enrichment
Target: Ras GTPase-activating protein-binding protein 1, RRM domain (G3BP1, Homo sapiens, UniProt Q13283)
UniProt Q13283, sequence (whole entry, looked up): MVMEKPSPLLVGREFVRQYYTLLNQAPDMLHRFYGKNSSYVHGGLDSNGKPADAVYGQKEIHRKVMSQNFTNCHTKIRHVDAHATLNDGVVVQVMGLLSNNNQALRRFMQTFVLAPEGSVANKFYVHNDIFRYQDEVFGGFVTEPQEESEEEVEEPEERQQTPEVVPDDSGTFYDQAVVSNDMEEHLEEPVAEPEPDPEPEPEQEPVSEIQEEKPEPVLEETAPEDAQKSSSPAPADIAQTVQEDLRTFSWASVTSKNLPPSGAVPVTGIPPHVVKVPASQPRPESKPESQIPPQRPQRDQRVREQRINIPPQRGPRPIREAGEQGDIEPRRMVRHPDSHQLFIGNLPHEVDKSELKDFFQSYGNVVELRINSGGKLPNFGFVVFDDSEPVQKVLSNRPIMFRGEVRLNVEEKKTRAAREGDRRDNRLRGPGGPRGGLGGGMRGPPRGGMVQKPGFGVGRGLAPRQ
All sequences stand within: GGGAGUUCUACAGUCCGACGAUC … UGGAAUUCUCGGGUGUCAAGG
CCUCAAGUCCUGUGCUACACAUCGUAUGUACCGAAUCGGGUGGGGUGGUGGGAAAGUAUUAUGUUACGCCGUUCGGAUCUGCACUUCCAG: 0.134
AGUCCUGUGCUACACAUCGUAUGUACCGAAUCAAACCCCCAAACCCAAAUUUUUAAAAAAGUAUUAUGUUACGCCGUUCGGAUCUGCACU: -0.128
CUGUGCUACACAUCGUAUGUACCGAAUCGGGGAAAAAAAGGAAAAAAAGGGGAAAAAAAGGGAAAGUAUUAUGUUACGCCGUUCGGAUCU: 0.21
UAACUUUAGAGGAGGAUCUGAUGGAUAUGGCAGUGGACGUGGAUUUGGGGAUGGCUAUAGUGGGUAUGGAGGAGGACCUGGAGGUGGCAA: -0.451
UCCUGUGCUACACAUCGUAUGUACCGAAUCGGGGAAAGGGGAAAGGGGUUUUUUUGGGGAAAGUAUUAUGUUACGCCGUUCGGAUCUGCA: 0.944
ACCAUGCAGGUGGGCAUCUUUGGGAAGUGGGGCAAGGGGGGGAUAGGGAGGGGGGUAACACCUUGGGAACAGGUGGUCCCAGGUCGUUUC: 1.02
CACAGACAACACGCACCCACACAGACACAGAGGGAAGGGGUUGGGAUGGGGACAGGGUGCACAGCAGGGCGAAAUAGGACCCCAGCCCCU: -0.0332
UCAAGUCCUGUGCUACACAUCGUAUGUACCGAAUCGGGCCGGCCGGGGCCGGGGAAAGUAUUAUGUUACGCCGUUCGGAUCUGCACUUCC: -0.653
AAGUCCUGUGCUACACAUCGUAUGUACCGAAUCGGGUUUGGGUGGGUUUUUUUGGGAAAGUAUUAUGUUACGCCGUUCGGAUCUGCACUU: 0.475
UGGCCCUGGUGGCAUGCGGGGAGGAAGAGGUGGCCUCAUGUAUCGUGGUGGUCCCGGUGGAAUGUUCAGAGGUGGCCGUGGUGGAGACAG: 0.306
CCUGUGCUACACAUCGUAUGUACCGAAUCGGGGUUUUUUUGGGGUUUGGGGUUUUUGGGGAAAGUAUUAUGUUACGCCGUUCGGAUCUGC: 0.581
UAACUUUAGAGGAGGAUCUGAUGGAUAUGGCAGUGGACGUGGAUUUGGGGAUGGCUGUAAUGGGUAUGGAGGAGGACCUGGAGGUGGCAA: -0.56
CACAGACAACAGGCACCCACACAGACACAGAGGGAAGGGGUUGGGAUGGGGACAGGGUGCACAGCAGGGCGGGGUAGGACCCCAGCCCCU: -0.0453
UCCGCGUGUGAAGUUUUUCUCGGCUGCAUCAUGGGUGCCACAUUCUUUUUGUUGUUUUCAGUGCUGCAAAAGCCCCAUAUCUGGCCAAGU: -0.239

Set 3 — method: RNA Bind-n-Seq; molecule type: RNA; matrix: in vitro; concentration: 365 nM; relative to: no-protein control; reading: higher = stronger binding; measurement: RBNS enrichment (R)
Target: RNA binding protein fox-1 homolog 2, RRM domain, GST-SBP tag (RBFOX2, Homo sapiens, UniProt O43251-10, residues 100-194)
Setting: natural RNA segment, single round, ends assumed
All sequences stand within: GGGAGUUCUACAGUCCGACGAUC … UGGAAUUCUCGGGUGCCAA
Target sequence (chain): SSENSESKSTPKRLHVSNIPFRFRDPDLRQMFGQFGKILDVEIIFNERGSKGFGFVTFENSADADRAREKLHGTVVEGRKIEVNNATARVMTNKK
GUUUUUUAUCAUAUAUGCAUUAAAAGUAUUAUGUUUAUCAACAUUUGCUGCUAUUGUGUUAACAUUUUUGUUUUGCUUGCCAUGAGGCCCCAUUUCCACCUCCCAGUAAA: 1.22
AGCUUAGUUUGUUACUAUGUGUGAUUUAGCAUCUGUCGCACUUGUGUAAAUAUGGAGUAAGUAUUGUAAACUAUUUAAUUGCUGCGAUUGUUGGGUUAUACAUACAUUUA: 13.3
AGUCCUCCCACCCCAGGACUCUAAAUUAUUGGGGUAAAAAACAGCCUUGCAAGAAAAAGGGGAGCUAUUUUUGCUUUUUAUGUUUUUUAUUGUUAAACUUGUAUCCCUUU: 0.856
CUUUUACAUGAGGCAAGAAGGAAGUAGUUGUAGAUAGAAUCAUUUUCUAGUUCUUUAAAUGAGACAAUCACUUUGUUUUCUAAUAGAUGUGACCUGUGUAACUUAAAAAA: 0.471
UGGAGCAUUAACUUGAAAUUGUCUUCAAGGACUUGCUAUGUGCACUUCUUCACACCGGUACAUUCUCUGCAUCUGUUUAUAUGAAAUAACACAAGCUAAUCUGUACCUUU: 0.253
UCAUGGGUGUCCCCACCCACUCCUCAGUGUUUGUGGAGUCGAGGAGCCAACCCCAGCCUCCUGCCAGGAUCACCUCGGCGGUCACACUCCAGCCAAAUAGUGUUCUCGGG: 0.236
UAGGCGUUUGCCUUGGAAAUGUGGAAAGUGCUUUACUAAAUAAUAAAAUUAAUUUUGUUUACGAGUGAAAGACAUUUUUUGCCAUACAUUGUAUGGUUGGAAUUGCCGGG: 0.708
UAUCGAUAGCUCCUCCCCCGGGAGACAGAGAGUCGCUCUGGUGGAUCAGUGUACAGAUUGUAUAUAGCGUCAUUUUUACGGAAACCCUUUUGGCGUGCAUAAGGAUCACU: 0.393
UAUUAAAGUAUAGAUGUAUGUCUUAAAAUGUGGGUGAUAGGAAUUUUAAAGAUUUAUAUAAUGCAUCAAAAGCCUUAGAAUAAGAAAAGCUUUUUUUAAAUUGCUUUAUC: 1.52
GCCCUGCCUCUAUGCACGCCCCCGGCAAAGGGCUUGUCAGUAGGUCCCCCUCAACUCCAUACUCAACAGGGAUGCACAGGAUUGCUAACAGAGGGCGGGGCACACCUCAG: 10.1
AUCUCUGAAUCCUUUUAAUCUAGAGAAGGCAUUUCAUAUUUGGGGGCUAAGGUUUCCAGUCAGAUGAGGCAAACAGCAAGAGUAAGCAGUGUUACUUGCAGGUACUUUGG: 0.512
AGAAAAAAAUAUACAAAGAAGUCAUCUUUUCAUUAAGUGGAUUCCCUGGUUCCUUUCCAGCUGGUUGUGGAAGUAAUGGCUAACAUCCUUCAGCUGACUUUGUCUACAAG: 0.389

Set 4 — method: universal PBM; molecule type: double-stranded DNA, one strand shown; matrix: in vitro; concentration: 600 nM; reading: higher = stronger binding; measurement: E-score
Target: Sal-like protein 4, full length isoform A (SALL4, Homo sapiens, UniProt Q9UJQ4, residues 1-1053)
UniProt Q9UJQ4, sequence (whole entry, looked up): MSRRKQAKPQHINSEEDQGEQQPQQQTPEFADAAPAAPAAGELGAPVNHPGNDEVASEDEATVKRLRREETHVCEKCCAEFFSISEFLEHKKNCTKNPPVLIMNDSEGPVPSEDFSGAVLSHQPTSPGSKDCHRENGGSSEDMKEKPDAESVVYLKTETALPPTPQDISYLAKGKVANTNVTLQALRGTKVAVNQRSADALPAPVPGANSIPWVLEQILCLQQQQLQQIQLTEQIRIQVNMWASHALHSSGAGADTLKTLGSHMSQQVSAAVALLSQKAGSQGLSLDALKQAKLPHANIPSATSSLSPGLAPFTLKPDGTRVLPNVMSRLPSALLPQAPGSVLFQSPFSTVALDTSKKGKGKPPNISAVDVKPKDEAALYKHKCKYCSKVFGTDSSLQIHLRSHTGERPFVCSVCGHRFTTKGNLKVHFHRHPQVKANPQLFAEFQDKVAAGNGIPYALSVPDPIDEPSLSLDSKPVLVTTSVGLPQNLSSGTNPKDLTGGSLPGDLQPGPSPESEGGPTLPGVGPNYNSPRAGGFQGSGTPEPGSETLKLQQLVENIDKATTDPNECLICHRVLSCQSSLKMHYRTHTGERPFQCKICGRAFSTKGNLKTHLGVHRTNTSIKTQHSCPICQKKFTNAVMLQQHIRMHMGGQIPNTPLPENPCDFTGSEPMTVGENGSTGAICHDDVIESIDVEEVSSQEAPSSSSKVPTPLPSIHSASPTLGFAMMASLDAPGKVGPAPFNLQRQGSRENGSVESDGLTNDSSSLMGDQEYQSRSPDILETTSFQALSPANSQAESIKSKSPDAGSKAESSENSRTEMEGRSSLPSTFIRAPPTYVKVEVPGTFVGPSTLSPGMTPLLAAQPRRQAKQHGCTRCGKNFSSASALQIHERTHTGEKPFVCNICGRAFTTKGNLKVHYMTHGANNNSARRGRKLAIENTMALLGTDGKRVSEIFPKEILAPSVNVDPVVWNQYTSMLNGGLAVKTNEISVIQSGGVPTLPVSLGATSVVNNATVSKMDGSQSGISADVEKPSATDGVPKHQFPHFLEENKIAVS
Setting: 8-mer, flanks averaged, mean of replicates
ACTTAACG: -0.0243
ACTCATTG: 0.0387
AGACCCGC: -0.271
CCATGTAA: 0.0644
GGAAACAA: 0.0181
ATAGGCGC: 0.0277
GTGCGAAC: -0.237
TATTAAGA: 0.297
GGCCTAGA: -0.0912
CCCAAGGC: -0.186
ACCTCTGC: -0.146
CAGACGCC: -0.318
CTGCATAA: 0.21
AGACCTCT: -0.167
CCTGATAA: 0.141
CGACGTTA: 0.105
AACAGTTA: 0.2
GTAGATGA: 0.188

Set 5 — target: UBE2Q2 UBC core domain (UniProt Q8WVN8); method: yeast two-hybrid; matrix: yeast; setting: mostly zero background; relative to: not given; reading: higher = stronger interaction; measurement: lacZ reporter activity
UniProt Q8WVN8, sequence (whole entry, looked up): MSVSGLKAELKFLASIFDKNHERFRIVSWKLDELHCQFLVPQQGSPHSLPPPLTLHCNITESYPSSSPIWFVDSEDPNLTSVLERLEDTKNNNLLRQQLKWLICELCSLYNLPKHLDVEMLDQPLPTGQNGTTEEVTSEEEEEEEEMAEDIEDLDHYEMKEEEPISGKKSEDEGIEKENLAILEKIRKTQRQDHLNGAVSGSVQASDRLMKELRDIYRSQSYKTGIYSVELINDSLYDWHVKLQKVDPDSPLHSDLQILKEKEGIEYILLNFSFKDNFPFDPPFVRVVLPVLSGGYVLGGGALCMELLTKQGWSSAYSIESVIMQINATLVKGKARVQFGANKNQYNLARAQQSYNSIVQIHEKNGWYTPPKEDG
B1: ZNF598 RING domain (UniProt Q86UK7); chain AAAPERGGGSCVLCCGDLEATALGRCDHPVCYRCSTKMRVLCEQRYCAVCREELRQVVFGK
B2: RC3H2 RING domain (UniProt Q9HBD1); chain QAAQWTEFLSCPICYNEFDENVHKPISLGCSHTVCKTCLNKLHRKACPFDQTAINTDIDVL
B3: ARK2C RING domain (UniProt Q6ZSG1); chain EGEESDTDEKCTICLSMLEDGEDVRRLPCMHLFHQLCVDQWLAMSKKCPICRVDIETQLGAD
B4: CUL9 RING domain (UniProt Q8IWT3); chain AQAVPVRPDHCPVCVSPLGCDDDLPSLCCMHYCCKSCWNEYLTTRIEQNLVLNCTCPIADCPAQPTGAFIR
B5: PHF21A RING domain (UniProt Q96BD5); chain SPTSTDGDIHEDFCSVCRKSGQLLMCDTCSRVYHLDCLDPPLKTIPKGMWICPRCQDQMLKKEEAIPW
B6: RNF170 RING domain (UniProt Q96K19); chain TRQQFYTDMYCPICLHQASFPVETNCGHLFCGACIIAYWRYGSWLGAISCPICRQTVTLLLTVF
B1 (ZNF598 RING domain): 0
RLTMMWEEVTCPICLDPFVEPVSIECGHSFCQECISQVGKGGGSVCPVCRQRFLLKNLRP (TRIM21 RING domain (UniProt P19474)): 0
B2 (RC3H2 RING domain): 0
YWAMDSTFELCKICAESNKDVKIEPCGHLLCSCCLAAWQHSDSQTCPFCRCEIKGWEAVS (CBLC RING domain (UniProt Q9ULV8)): 0
KTLSRFGIQPCSICLGDAKDPVCLPCDHVHCLRCLRAWFASEQMICPYCLTALPDEFSPA (RNF213 RING domain (UniProt Q63HN8)): 0
B3 (ARK2C RING domain): 0
B4 (CUL9 RING domain): 0
B5 (PHF21A RING domain): 0
B6 (RNF170 RING domain): 0
DDENSDNSNECVVCLSDLRDTLILPCRHLCLCTSCADTLRYQANNCPICRLPFRALLQIR (MGRN1 RING domain (UniProt O60291)): 0
DAIPSLSECQCGICMEILVEPVTLPCNHTLCKPCFQSTVEKASLCCPFCRRRVSSWTRYH (RNF168 RING domain (UniProt Q8IYW5)): 0
VTLSLTLPITCHICLGKVRQPVICINNHVFCSICIDLWLKNNSQCPACRVPITPENPCK (OBI1 RING domain (UniProt Q5W0B1)): 0

Set 6 — method: protein binding microarray; molecule type: double-stranded DNA, one strand shown; matrix: in vitro; concentration: not given; relative to: not given; reading: higher = stronger binding; measurement: E-score
Target: Histone acetyltransferase KAT6A, winged helix 2, GST fusion (KAT6A, Homo sapiens, UniProt Q92794, residues 85-181)
Setting: 8-mer, flanks averaged, mean of 2 arrays, mostly near background
Target sequence (chain): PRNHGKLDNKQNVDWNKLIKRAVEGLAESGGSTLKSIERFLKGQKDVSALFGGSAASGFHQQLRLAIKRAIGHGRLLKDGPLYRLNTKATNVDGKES
GTTCTTAA: 0.119
AACGATCC: -0.0973
ACTCCAAT: -0.0688
CCTAACCG: -0.131
ACGGTTAC: -0.061
GAAGGATA: -0.0714
CTATTTCC: -0.0334
CCAAAGCC: -0.0858
GTACCGAC: -0.0398
AATGCTAA: 0.0644
AACCTTAT: -0.029
TAGACCTA: -0.114
GCGACATA: 0.0936
CTAGAGGA: -0.0669
CCGAAATC: 0.135
GCTTCCTA: 0.0434

Repeated from above (set 4):
ATAGGCGC: 0.0277
GTGCGAAC: -0.237
TATTAAGA: 0.297
GGCCTAGA: -0.0912
CCCAAGGC: -0.186
ACCTCTGC: -0.146
CAGACGCC: -0.318
CTGCATAA: 0.21
AGACCTCT: -0.167
CCTGATAA: 0.141
